# Experimental data from different studies.
# Compare with care: the assays were run in different laboratories.
SMILES,test,system,setting,quantity,value
C=CCNc1c(O)cc2c(O)c1C[C@@H](C)C[C@H](OC)[C@H](O)[C@@H](C)/C=C(\C)[C@H](OC(N)=O)[C@@H](OC)/C=C\C=C(/C)C(=O)N2,,"unresectable or metastatic STS, GIST, other","intravenous, 400 mg/m^2",patients with arthralgia TEAE,41%
C=CC(=O)N1CC[C@H](n2nc(C#Cc3cc(OC)cc(OC)c3)c3c(N)ncnc32)C1,,hyperphosphataemia patients,"oral, once daily, grade ≥3, all patients",patients with ADR,14%
COc1cc2c(Oc3ccc4[nH]c(C)cc4c3F)ccnc2cc1OCC1(N)CC1,,paediatric refractory sarcoma patients,8 mg/kg,patients with grade 3 Cholesterol elevation,0%
Cn1cc(-c2nc(N[C@@H]3CCCC[C@@H]3N)c(F)c3c2C(=O)NC3)cn1,,relapsed/refractory AML patients,"oral, 80 mg twice daily, phase Ib trial",patients with subdural haematoma,17%
C[C@@H]1OC(=O)NN=C1c1ccc(-c2ccc(F)cc2)c(C(F)(F)F)c1,,"patients, phase I trial","oral, dose not given, all arms, worst grade 1",patients with back pain,20%
O=C1Nc2cc3[nH]nc(-c4ccncc4)c3cc2CN1Cc1ccccc1,CTCAE v4.03,advanced solid tumour patients,"intravenous, 1.8 mg/kg, schedules 1/2",patients with dyspnoea,0%
N[C@@H]1c2ccccc2OC12CCN(c1cnc3c(N4CCCc5ncccc54)n[nH]c3n1)CC2,,advanced solid tumour patients,"oral, 150 mg once daily",patients with serious TEAE,75%
CCNCCCNC/C=C\CNCCCNCC,,advanced refractory solid tumour patients,"intravenous, dose not given, nausea",patients with treatment-related TEAE,28.3%
COc1ccc(-c2c(-c3ccc(C#N)c(F)c3)nc(N3CCC(N)CC3)n(C)c2=O)cc1F,refers to: rash maculo-papular,relapsed/refractory MZL patients,"oral, 60 mg, dose expansion",patients with TRAE any grade,0%
COc1nnc2ccc(N3CCC(c4ccc(OCCN5CCN(C)C(=O)[C@H]5C)cc4)CC3)nn12,refers to: thrombocytopenia,patients with solid tumours or lymphoma,"oral, dose not given, all grades, treatment-emergent",patients with adverse event,32.4%
CC(=O)c1c(C)c2cnc(Nc3ccc(C4CCN(CCS(C)(=O)=O)CC4)cn3)nc2n(C2CCCC2)c1=O,,HR+/HER2- advanced breast cancer patients,"oral, 200 mg",patients with TEAE grade ≥3,66.7%
Nc1nc2cc(-c3ccc4ncc(C(=O)N5CCOCC5)n4c3)ccc2o1,"refers to: Anemia, any cause, grade ≥3",patients with advanced solid tumours,dose not given,patients with adverse events,7%
[O-][S+]1CCc2nc(N3CCC(c4ncc(Cl)cn4)CC3)nc(NC3(CO)CCC3)c21 (stereo not drawn),adverse event,idiopathic pulmonary fibrosis patients,18 mg twice daily,patients with soft faeces,10%
COc1c(C)cnc(Cn2cc(C#CCCOP(=O)(O)O)c3c(Cl)nc(N)nc32)c1C,,"patients, advanced solid tumours","dose not given, all doses",patients with dizziness,22%
CN1CC[C@@H](c2c(O)cc(O)c3c(=O)cc(-c4ccc(C(F)(F)F)cc4Cl)oc23)[C@@H]1CO,refers to: Constipation,B-cell malignancies,"oral, 200 mg, intermittent dosing",patients with adverse event,0%

# Some of these lines once more:
SMILES,test,system,setting,quantity,value
CN1CC[C@@H](c2c(O)cc(O)c3c(=O)cc(-c4ccc(C(F)(F)F)cc4Cl)oc23)[C@@H]1CO,refers to: Constipation,B-cell malignancies,"oral, 200 mg, intermittent dosing",patients with adverse event,0%
